Experimental data gathered from unrelated publications.
Each numbered part is a random draw from the data of one study; scales do not carry over between parts. “And” joins repeats or separate records; there may be more than shown.
Sequence of UniProt P41145 (whole entry, looked up): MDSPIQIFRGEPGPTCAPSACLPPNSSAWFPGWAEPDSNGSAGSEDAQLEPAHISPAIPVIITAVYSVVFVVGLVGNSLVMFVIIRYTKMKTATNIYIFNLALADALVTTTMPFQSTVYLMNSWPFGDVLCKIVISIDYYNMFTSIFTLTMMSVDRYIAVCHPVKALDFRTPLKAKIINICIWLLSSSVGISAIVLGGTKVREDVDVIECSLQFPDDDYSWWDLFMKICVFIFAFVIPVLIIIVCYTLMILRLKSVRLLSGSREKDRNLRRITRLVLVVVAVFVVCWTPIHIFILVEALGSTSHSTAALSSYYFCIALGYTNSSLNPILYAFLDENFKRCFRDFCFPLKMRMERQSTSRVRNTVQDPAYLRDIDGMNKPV
Sequence of UniProt P9WI81 (whole entry, looked up): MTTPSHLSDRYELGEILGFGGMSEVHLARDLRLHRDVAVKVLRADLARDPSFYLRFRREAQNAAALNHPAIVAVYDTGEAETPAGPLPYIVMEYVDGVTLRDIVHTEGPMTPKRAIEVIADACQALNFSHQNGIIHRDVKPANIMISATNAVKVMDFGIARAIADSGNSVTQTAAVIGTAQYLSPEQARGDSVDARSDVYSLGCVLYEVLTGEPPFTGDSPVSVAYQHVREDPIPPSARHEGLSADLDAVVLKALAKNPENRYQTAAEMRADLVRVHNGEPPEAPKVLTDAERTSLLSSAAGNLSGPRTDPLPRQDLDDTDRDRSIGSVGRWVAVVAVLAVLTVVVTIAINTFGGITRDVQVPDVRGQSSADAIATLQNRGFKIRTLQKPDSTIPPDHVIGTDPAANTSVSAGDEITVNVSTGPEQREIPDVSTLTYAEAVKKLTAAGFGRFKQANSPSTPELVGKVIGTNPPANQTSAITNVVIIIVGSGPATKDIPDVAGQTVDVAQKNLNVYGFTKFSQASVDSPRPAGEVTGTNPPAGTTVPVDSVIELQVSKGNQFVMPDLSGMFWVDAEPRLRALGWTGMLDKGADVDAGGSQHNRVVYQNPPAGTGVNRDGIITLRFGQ

Series 1
SMILES: Cn1cc(-c2cccc(CN3CCC4(CC3)COc3c4ccc4c3CN([C@H]3CCC(=O)NC3=O)C4=O)c2)cn1
Mode: degrader
CRBN/Zinc finger protein Helios: CRBN/Zinc finger protein Helios (Homo sapiens, UniProt Q96SW2+Q9UKS7)
Sequence of UniProt Q96SW2 (whole entry, looked up): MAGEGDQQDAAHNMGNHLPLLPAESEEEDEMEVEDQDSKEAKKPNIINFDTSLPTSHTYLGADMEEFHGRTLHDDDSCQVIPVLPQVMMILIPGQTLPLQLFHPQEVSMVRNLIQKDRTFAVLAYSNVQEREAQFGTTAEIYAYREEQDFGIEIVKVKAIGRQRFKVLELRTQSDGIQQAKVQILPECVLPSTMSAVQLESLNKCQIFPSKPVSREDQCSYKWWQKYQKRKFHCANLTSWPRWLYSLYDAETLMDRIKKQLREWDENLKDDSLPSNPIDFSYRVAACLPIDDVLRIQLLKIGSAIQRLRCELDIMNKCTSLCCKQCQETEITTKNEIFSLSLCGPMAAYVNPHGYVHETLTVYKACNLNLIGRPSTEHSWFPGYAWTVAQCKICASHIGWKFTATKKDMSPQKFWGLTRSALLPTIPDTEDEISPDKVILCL
Sequence of UniProt Q9UKS7 (whole entry, looked up): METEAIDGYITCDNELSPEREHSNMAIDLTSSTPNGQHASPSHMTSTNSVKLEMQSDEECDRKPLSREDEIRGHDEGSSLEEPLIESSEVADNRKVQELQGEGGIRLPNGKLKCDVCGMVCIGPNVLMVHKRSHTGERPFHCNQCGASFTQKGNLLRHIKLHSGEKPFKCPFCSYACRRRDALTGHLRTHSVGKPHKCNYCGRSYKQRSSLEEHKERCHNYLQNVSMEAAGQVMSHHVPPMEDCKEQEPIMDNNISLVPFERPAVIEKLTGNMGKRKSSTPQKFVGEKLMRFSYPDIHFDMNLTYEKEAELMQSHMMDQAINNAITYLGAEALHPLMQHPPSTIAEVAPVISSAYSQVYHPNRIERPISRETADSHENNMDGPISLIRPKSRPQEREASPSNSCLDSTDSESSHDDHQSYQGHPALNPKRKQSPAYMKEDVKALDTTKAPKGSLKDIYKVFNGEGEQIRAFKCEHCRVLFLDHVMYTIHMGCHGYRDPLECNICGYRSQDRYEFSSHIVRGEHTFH
Ikzf2/Crbn I391V: Ikzf2/Crbn (Mus musculus, UniProt P81183+Q8C7D2, I391V)
Sequence of UniProt Q8C7D2 (whole entry, unmodified, looked up): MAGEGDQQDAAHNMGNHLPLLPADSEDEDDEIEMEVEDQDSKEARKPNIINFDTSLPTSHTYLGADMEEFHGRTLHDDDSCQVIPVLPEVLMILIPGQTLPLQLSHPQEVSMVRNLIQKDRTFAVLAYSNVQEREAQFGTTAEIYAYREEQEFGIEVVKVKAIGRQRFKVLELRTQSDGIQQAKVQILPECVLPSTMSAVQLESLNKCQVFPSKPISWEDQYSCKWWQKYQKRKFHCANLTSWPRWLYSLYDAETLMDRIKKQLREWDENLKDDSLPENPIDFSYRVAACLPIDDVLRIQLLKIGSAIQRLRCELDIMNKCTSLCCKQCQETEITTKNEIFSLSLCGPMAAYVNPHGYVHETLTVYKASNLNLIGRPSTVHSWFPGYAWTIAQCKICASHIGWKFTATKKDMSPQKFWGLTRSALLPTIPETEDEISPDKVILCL
Sequence of UniProt P81183 (whole entry, unmodified, looked up): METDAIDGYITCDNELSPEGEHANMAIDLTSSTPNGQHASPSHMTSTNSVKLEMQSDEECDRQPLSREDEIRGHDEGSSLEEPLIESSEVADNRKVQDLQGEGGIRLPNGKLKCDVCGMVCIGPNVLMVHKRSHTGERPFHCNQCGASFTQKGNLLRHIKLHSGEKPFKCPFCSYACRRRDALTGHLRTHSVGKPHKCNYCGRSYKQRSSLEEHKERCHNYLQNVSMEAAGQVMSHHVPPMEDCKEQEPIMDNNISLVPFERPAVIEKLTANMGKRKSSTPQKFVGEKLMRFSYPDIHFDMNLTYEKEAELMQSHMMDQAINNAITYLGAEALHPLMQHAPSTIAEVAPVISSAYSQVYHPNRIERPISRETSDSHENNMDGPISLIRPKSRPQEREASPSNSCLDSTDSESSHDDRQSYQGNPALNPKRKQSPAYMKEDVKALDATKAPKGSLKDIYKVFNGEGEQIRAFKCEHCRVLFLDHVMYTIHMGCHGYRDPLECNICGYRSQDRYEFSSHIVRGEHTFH
The protein remaining was 19.1% and 22.3% (CRBN/Zinc finger protein Helios; HiBiT; HEK293; 12.35 nM, 6 h).
CRBN/Zinc finger protein Helios; HiBiT; HEK293; 0.4572 nM — protein remaining: 52.8% and 74.9%.
For Ikzf2/Crbn I391V; Crbn I391V mouse, thymus; 100 mg/kg, 24 h: protein remaining read 40% and 16% and 49% and 23%.
It gave 24.8% and 22.7% for protein remaining (CRBN/Zinc finger protein Helios; HiBiT; HEK293; 4.115 nM, 6 h).
For Ikzf2/Crbn I391V; Crbn I391V mouse, thymus; 30 mg/kg, 6 h: protein remaining read 27% and 35% and 37% and 40%.
For CRBN/Zinc finger protein Helios; HiBiT; HEK293; 0.01694 nM, 1 h: protein remaining read 93.2% and 82.7%.
CRBN/Zinc finger protein Helios; HiBiT; HEK293; 0.05081 nM, 1 h — protein remaining: 95.5% and 88.7%.
For CRBN/Zinc finger protein Helios; HiBiT; HEK293; 1000 nM, 6 h: protein remaining read 9.9% and 11.4%.
It gave 28.1% and 33.9% for protein remaining (CRBN/Zinc finger protein Helios; HiBiT; HEK293; 4.115 nM, 3 h).
It gave 92.7% and 86.6% for protein remaining (CRBN/Zinc finger protein Helios; HiBiT; HEK293; 0.01694 nM, 6 h).
For Ikzf2/Crbn I391V; Crbn I391V mouse, thymus; 10 mg/kg, 24 h: protein remaining read 72% and 52% and 60%.

Series 2
Compound: CCCCC[C@@H]1CC(=O)N[C@@H](C(C)C)C(=O)N[C@H](CCC(=O)O)C(=O)N[C@@H](CCCNC(=N)N)C(=O)NCC(=O)N2CCC[C@H]2C(=O)N[C@@H](CC(C)C)C(=O)N[C@H](CCC(N)=O)C(=O)N[C@@H](CCC(=O)O)C(=O)N[C@H](Cc2ccc(O)cc2)C(=O)N[C@H](Cc2c[nH]c3ccccc23)C(=O)NCCCC(=O)O1
Organism: Staphylococcus aureus
Strain: USA300
Tested at: 2 x MIC
0 min — viable cells: 4.4e+08 CFU/mL and 3.6e+08 CFU/mL and 4.9e+08 CFU/mL.
It gave 1900 CFU/mL and 2100 CFU/mL and 2000 CFU/mL for viable cells (30 min).
The viable cells was 400 CFU/mL and 500 CFU/mL and 300 CFU/mL (360 min).
It gave 1000 CFU/mL and 800 CFU/mL and 1200 CFU/mL for viable cells (120 min).

Series 3
Target: Membrane-associated tyrosine- and threonine-specific cdc2-inhibitory kinase (PKMYT1, Homo sapiens, UniProt Q99640)
Effect on: binding
Technique: HTRF
Tested at: 1000 nM
Target sequence (Q99640 1-499): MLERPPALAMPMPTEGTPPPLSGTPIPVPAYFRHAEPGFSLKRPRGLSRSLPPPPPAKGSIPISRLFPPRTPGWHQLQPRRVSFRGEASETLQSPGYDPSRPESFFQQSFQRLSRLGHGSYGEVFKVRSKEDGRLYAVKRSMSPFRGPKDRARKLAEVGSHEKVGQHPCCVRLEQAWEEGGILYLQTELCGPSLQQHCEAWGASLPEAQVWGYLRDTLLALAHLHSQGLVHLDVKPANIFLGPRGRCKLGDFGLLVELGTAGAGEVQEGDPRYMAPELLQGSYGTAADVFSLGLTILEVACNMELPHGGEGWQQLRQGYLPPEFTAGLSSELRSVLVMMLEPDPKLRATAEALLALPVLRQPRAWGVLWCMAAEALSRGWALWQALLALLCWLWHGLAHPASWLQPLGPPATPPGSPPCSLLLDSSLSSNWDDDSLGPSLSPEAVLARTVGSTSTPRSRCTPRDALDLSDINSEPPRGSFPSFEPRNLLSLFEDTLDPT
For `Cc1ccc(O)c(C)c1-c1cnc2[nH]c(-c3cnc(N4CCC(CN5CCN(c6ccc7c8c(cccc68)C(=O)N7C6CCC(=O)NC6=O)CC5)CC4)nc3)cc2c1C#N` (racemic), the inhibition was 99.4% and 98.5%.
The inhibition of `Cc1ccc(O)c(C)c1-c1cnc2[nH]c(-c3cnc(N4CCC(CN5CCN(c6ccc(C(=O)NC7CCC(=O)NC7=O)c(F)c6)CC5)CC4)nc3)cc2c1C#N` (racemic) is reported as 99% and 99.7%.
`Cc1ccc(O)c(C)c1-c1cnc2[nH]c(-c3cnc(N4CCC(CN5CCN(c6ccc(N7CCC(=O)NC7=O)cc6F)CC5)CC4)nc3)cc2c1C#N` has an inhibition of 99.1% and 98%.

Mixed results
OPRD1: Delta-type opioid receptor (OPRD1, Homo sapiens, UniProt P41143)
Sequence of UniProt P41143 (whole entry, looked up): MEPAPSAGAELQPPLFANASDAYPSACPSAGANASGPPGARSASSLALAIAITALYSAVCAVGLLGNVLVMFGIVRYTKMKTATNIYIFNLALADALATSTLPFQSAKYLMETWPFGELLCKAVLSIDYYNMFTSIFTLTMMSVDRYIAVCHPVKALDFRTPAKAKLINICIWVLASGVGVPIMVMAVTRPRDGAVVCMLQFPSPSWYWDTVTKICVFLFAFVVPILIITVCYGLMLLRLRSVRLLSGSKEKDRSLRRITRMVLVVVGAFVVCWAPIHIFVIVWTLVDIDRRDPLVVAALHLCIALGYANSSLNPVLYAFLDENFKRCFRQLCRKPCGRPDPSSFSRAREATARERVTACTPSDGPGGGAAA
The EC50 of `CCCCCCCCN1CCC23c4c5ccc(O)c4OC2c2nc4ccccc4cc2CC3(O)C1C5` (centres unmarked) is reported as 2190 nM (Delta-type opioid receptor, with β-arrestin1 (OPRD1, Homo sapiens, UniProt P41143); agonist).
`COc1cc(-c2nc3ccc(C(=O)NCCCN4CCN(c5cccc(C)c5C)CC4)cc3n2C2CCC2)cc(OC)c1OC` gave a remaining binding of 78% (Serine/threonine-protein kinase PknB (pknB, Mycobacterium tuberculosis, UniProt P9WI81); binding, competition with immobilised ligand; 1 µM).
`N=C(N)NCCCCCCN1CCC23c4c5ccc(O)c4OC2c2nc4ccccc4cc2CC3(O)C1C5` (centres unmarked) has a Ki of 457 nM (Kappa-type opioid receptor (OPRK1, Homo sapiens, UniProt P41145); cell-free assay).
With `NC(=O)NCCCCCCN1CCC23c4c5ccc(O)c4OC2c2nc4ccccc4cc2CC3(O)C1C5` (centres unmarked) the Ki was 93.3 nM (OPRD1; ligand displacement, radioligand).
The Ki of `NCCCCCCCCN1CCC23c4c5ccc(O)c4OC2c2nc4ccccc4cc2CC3(O)C1C5` (centres unmarked) is reported as 2.63 nM (OPRD1; ligand displacement, radioligand).

Some of these lines once more (mixed results):
The EC50 of `CCCCCCCCN1CCC23c4c5ccc(O)c4OC2c2nc4ccccc4cc2CC3(O)C1C5` (centres unmarked) is reported as 2190 nM (Delta-type opioid receptor, with β-arrestin1 (OPRD1, Homo sapiens, UniProt P41143); agonist).
`COc1cc(-c2nc3ccc(C(=O)NCCCN4CCN(c5cccc(C)c5C)CC4)cc3n2C2CCC2)cc(OC)c1OC` gave a remaining binding of 78% (Serine/threonine-protein kinase PknB (pknB, Mycobacterium tuberculosis, UniProt P9WI81); binding, competition with immobilised ligand; 1 µM).
`N=C(N)NCCCCCCN1CCC23c4c5ccc(O)c4OC2c2nc4ccccc4cc2CC3(O)C1C5` (centres unmarked) has a Ki of 457 nM (Kappa-type opioid receptor (OPRK1, Homo sapiens, UniProt P41145); cell-free assay).
